# Measured values of several laboratories.
# Lines come from different studies, so protocols differ. ± marks the error that the study gave.
# Ugcg: Ceramide glucosyltransferase (Ugcg, Mus musculus, UniProt O88693)
# EGFR: Epidermal growth factor receptor (EGFR, Homo sapiens, UniProt P00533)
# RAD52: DNA repair protein RAD52 homolog (RAD52, Homo sapiens, UniProt P43351)
# AR: Androgen receptor (AR, Homo sapiens, UniProt P10275)
# DRD3: D(3) dopamine receptor (DRD3, Homo sapiens, UniProt P35462)
# PLA2G4A: Cytosolic phospholipase A2 (PLA2G4A, Homo sapiens, UniProt P47712)
SMILES,tested on,assay,system,setting,endpoint,result
OC[C@H]1[C@@H](O)[C@H](O)[C@@H](O)CN1CCCCOCCC12CC3CC(CC(C3)C1)C2,Ugcg,"enzyme activity, inhibitor, fluorescence",,,IC50,1.34 µM
CCN(CC)CC(=O)Nc1cccc(-n2cc(-c3ccc4ccc(-c5cn(-c6cccc(NC(=O)CN(CC)CC)c6)nn5)cc4c3)nn2)c1,"Serine/threonine-protein kinase N1 (PKN1, Homo sapiens, UniProt Q16512)","enzyme activity, inhibitor",,,IC50,> 10 µM
C=CC(=O)Nc1cc(Nc2ncnc(Nc3cc(Cl)c(F)cc3C(C)(C)O)n2)c(OC)cc1N1CCC(N(C)C)C1 (stereo not drawn),EGFR,"EGFR phosphorylation, inhibitor",A-431,,IC50,0.012 µM
Fc1ccc(Nc2nc(NC3CCCCC3)c3cc(C(F)(F)F)ccc3n2)cc1F,"Beta-2 adrenergic receptor (ADRB2, Homo sapiens, UniProt P07550, I159A)","β-arrestin2 recruitment, antagonist, BRET",HEK293,"mutant I159A, with: isoprenaline 1 µM",IC50,0.2 µM
CCn1nc(Cl)c2c1-c1cnc(N)c(c1)O[C@H](C)c1cc(F)ccc1-c1nn(C)cc1C2,"BDNF/NT-3 growth factors receptor (NTRK2, Homo sapiens, UniProt Q16620)","enzyme activity, inhibitor, radiometric",,,IC50,0.018 µM
COc1cc(O)c2c(c1)CCC21CCC(=O)CC1,"Sucrase-isomaltase, intestinal (Si, Rattus norvegicus, UniProt P23739)","enzyme activity, inhibitor, absorbance",,,IC50,2200 µM
Cc1cc(C)nc(NC(=S)N2CCN(c3ccncc3)CC2)c1,"GPD1 (Homo sapiens, UniProt P21695)","enzyme activity, inhibitor",,,IC50,> 100 µM
CCCCCCCCCOCCCCCN1C[C@H](O)[C@@H](O)[C@H](O)[C@@H]1CO,Ugcg,"enzyme activity, inhibitor, fluorescence",,,IC50,0.05 µM
Cn1nc(-c2ccc(Cl)cc2)c2cc(C(=O)NCCCN3CCCC3)sc21,RAD52,"ssDNA annealing, fluorescence quenching",,,IC50,3.5 µM
COc1ccc(Nc2cc(NC3CC3)n3ncc(C#N)c3n2)cc1,"Dual specificity protein kinase CLK2 (CLK2, Homo sapiens, UniProt P49760)",inhibitor,,,IC50,3 µM
CC(=O)N1CCN(CCOc2ccc(C3CCN(C4=Nn5c(nnc5C(F)(F)F)CC4)CC3)cc2)CC1,AR,"antagonist, nuclear translocation",,top concentration 10 µM,IC50,> 10 µM
Cc1nn(-c2cccc(N)c2)c(=O)c2cnc(Nc3ccc(N4CCNCC4)cc3)nc12,"Tyrosine-protein kinase ABL1 (ABL1, Homo sapiens, UniProt P00519, G250E)","enzyme activity, inhibitor",,,IC50,0.929 µM
Cc1ccc(NS(=O)(=O)c2c(C(=O)N3CCCC3)c(C)n(C)c2C)cc1Cl,DRD3,"Go activation, antagonist, BRET",,with: dopamine,IC50,14 ± 3.8 µM
Sc1nc[nH]n1,"CUGBP Elav-like family member 2, residues 40-212 (Homo sapiens, UniProt O95319)","protein-RNA binding, inhibitor, fluorescence polarization",,"200 nM protein, with: 10 nM RNA",IC50,1.9 ± 0.32 µM
CCCCCCCOCCCCCN1C[C@H](O)[C@@H](O)[C@H](O)[C@H]1CO,Ugcg,"enzyme activity, inhibitor, fluorescence",,,IC50,0.3 µM
O=C(Oc1ccc(CSc2ncccn2)cc1)c1ccc([N+](=O)[O-])cc1,"Apelin receptor (APLNR, Homo sapiens, UniProt P35414)","β-arrestin recruitment, antagonist",,,IC50,> 100 µM
Cc1cc(=O)oc2ccc(OCC(=O)Nc3cc(C(F)(F)F)c4cn[nH]c4c3)cc12,PLA2G4A,"enzyme activity, inhibitor, fluorescence",,,IC50,3.18 µM
O=C(CCCCCN1C[C@H](O)[C@@H](O)[C@H](O)[C@@H]1CO)NC12CC3CC(CC(C3)C1)C2,Ugcg,"enzyme activity, inhibitor, fluorescence",,,IC50,0.4 µM
COc1ccc(OCc2ccc([N+](=O)[O-])cc2)cc1-c1c[nH]c2ncc(-c3cncc(C(=O)N(C)C)c3)cc12,"Tyrosine-protein kinase ABL1 (ABL1, Homo sapiens, UniProt P00519)","kinase activity, inhibitor, HTRF",,"1 h preincubation, with: ATP 20 µM",IC50,0.0789 ± 0.0222 µM
CSc1nc2cc(Cl)c(Oc3cccc(Cl)c3Cl)cc2[nH]1,"Aldehyde dehydrogenase X, mitochondrial (ALDH1B1, Homo sapiens, UniProt P30837)","enzyme activity, inhibitor",,,IC50,2.13 µM
CC1(C)NC(=O)N(c2ccc(F)c(C(C)(F)F)c2)C1=O,AR,"reporter gene, antagonist",LAPC4,"24 h, with: DHT 10 nM",IC50,> 100 µM
CNCc1ccc2c(c1)N(C(=O)OCC(F)(F)F)[C@H](CNC(=N)N)[C@H]2NC(=O)C(=O)Nc1ccc(Cl)c(F)c1,"env (Human immunodeficiency virus 1, UniProt Q2N0S5)",HIV-1 infection,Cf2Th-CD4/CCR5 cells,48 h,IC50,46 µM
CCCCOCCCCCN1C[C@H](O)[C@@H](O)[C@H](O)[C@@H]1CO,Ugcg,"enzyme activity, inhibitor, fluorescence",,,IC50,2 µM
Cc1ccc(-c2nc(C(=O)NCCCN3CCOCC3)cc3c2[nH]c2ccccc23)cc1,RAD52,"ssDNA annealing, fluorescence quenching",,,IC50,2 µM
O=C(CN1CCOCC1)Nc1ccc(C2CCCCC2)cc1,,hepatocyte stability,cryopreserved rat hepatocytes,1 µM,hepatic clearance,45 mL/min/kg
CC(C)Cc1ccc(C(C)C(=O)NC(CCCCNC(=O)CCOCCOCCOCCOCCOCCOCCNC(=O)CN2CCN(CC(=O)O)CCN(CC(=O)O)CCN(CC(=O)O)CC2)C(=O)Nc2cccc3c(C(=O)NCC(=O)N4CC(F)(F)C[C@H]4C#N)ccnc23)cc1 (stereo partly drawn),"Prolyl endopeptidase FAP (FAP, Homo sapiens, UniProt Q12884)","enzyme activity, inhibitor, fluorescence",,,IC50,0.00142 µM
Cc1cc(NC2CCN(C)CC2)ccc1-c1cc2c(N3CCC[C@H](C(=O)NCc4ccc(OC(F)(F)F)cc4)C3)ncnc2[nH]1,"Hepatocyte growth factor receptor (MET, Homo sapiens, UniProt P08581)","enzyme activity, inhibitor, mobility shift",,,IC50,4.18 µM
C[C@@H]1Cc2c([nH]c3ccccc23)[C@@H](c2c(F)cc(/C=C/C(=O)O)cc2F)N1C12CC(C1)C2,AR,"antagonist, cell-based",,,IC50,> 3 µM
CCN(CC)CCCN(Cc1cc2cc3c(cc2[nH]c1=O)OCO3)C(=S)NCCCN(C)C,RAD52,"ssDNA annealing, fluorescence quenching",,,IC50,5.2 µM
O=C(COCC(F)F)Nc1ccc([C@H]2[C@@H](F)[C@@H](F)C[C@@H](F)[C@H]2F)cc1,,liver microsome stability,cynomolgus liver microsomes,1 µM,hepatic clearance,20 mL/min/kg
CCCCc1nc2c([nH]1)[C@H](O)[C@@H](O)[C@H](O)[C@H]2O,"Lysosomal alpha-glucosidase (GAA, Homo sapiens, UniProt P10253)",,,pH 4.8,IC50,> 100 µM
CCCCCN1C[C@H](O)[C@@H](O)[C@H](O)[C@@H]1CO,Ugcg,"enzyme activity, inhibitor, fluorescence",,,IC50,15 µM
O=C(Cc1ccc(OCc2ccccc2)cc1)NC1(C(=O)O)CCN(C(=O)c2ccc(-c3cccc(Cl)c3)cc2)CC1,"Probable G-protein coupled receptor 174 (Homo sapiens, UniProt Q9BXC1)","TGF-alpha shedding, antagonist",,,IC50,> 10 µM
C[C@@H](OC(=O)c1cc2cc[nH]c(=O)c2s1)C(=O)NC(c1ccccc1)c1ccccc1,PLA2G4A,"enzyme activity, inhibitor, fluorescence",,,IC50,5.35 µM
OC[C@@H]1[C@@H](O)[C@H](O)[C@@H](O)CN1CCCCCOCC1CCCCC1,Ugcg,"enzyme activity, inhibitor, fluorescence",,,IC50,0.5 µM
COCC1CN(C2CCN(c3cc(OC)c(Nc4ncc(Br)c(Nc5ccc6c(c5P(C)(C)=O)OCCO6)n4)cc3C)CC2)C1,EGFR,"enzyme activity, inhibitor, TR-FRET",,,IC50,0.0091 µM
COc1ccc2c(c1)CN(C(=O)CCN1CCC(Cc3ccccc3)CC1)CCS2,"A-type voltage-gated potassium channel KCND3 (KCND3, Homo sapiens, UniProt Q9UK17)","Ito current, inhibitor, whole-cell patch clamp",stable cell line,,IC50,11.3 µM
Cc1ccc(NS(=O)(=O)c2c(C)[nH]c(C)c2C(=O)N2CCCC2)cc1F,DRD3,"Go activation, antagonist, BRET",,with: dopamine,IC50,10 ± 1.1 µM
CC(C)=CCC1C2=C(OC(C(C)(C)O)CC2=O)C23C(=C(C)C)OC(C)(C)C2CCC13C (stereo not drawn),"Beta-secretase 1 (Mus musculus, UniProt P56818)","enzyme activity in cells, inhibitor",,,IC50,0.74 µM
CN1CCN(CCCNC(=O)c2cc3c(-c4ccc(Cl)cc4)nn(C)c3s2)CC1,RAD52,D-loop formation,,with: RAD52 450 nM,IC50,2.7 ± 0.35 µM
CC(=O)c1cnc(N)nc1N1CC[C@H]1c1nn2ccc(Cl)c2c(=O)n1-c1ccccc1,"PI3-kinase catalytic subunit delta (Rattus norvegicus, UniProt A0A8I5Y949)","binding, KiNativ",intact rat white blood cells,,IC50,0.0384 µM
OC[C@@H]1[C@@H](O)[C@H](O)[C@@H](O)CN1CCCCCOCc1ccc(-c2ccc(F)nc2)cc1,Ugcg,"enzyme activity, inhibitor, fluorescence",,,IC50,0.75 µM

# Repeated from above:
SMILES,tested on,assay,system,setting,endpoint,result
Cc1ccc(-c2nc(C(=O)NCCCN3CCOCC3)cc3c2[nH]c2ccccc23)cc1,RAD52,"ssDNA annealing, fluorescence quenching",,,IC50,2 µM
O=C(CN1CCOCC1)Nc1ccc(C2CCCCC2)cc1,,hepatocyte stability,cryopreserved rat hepatocytes,1 µM,hepatic clearance,45 mL/min/kg
CC(C)Cc1ccc(C(C)C(=O)NC(CCCCNC(=O)CCOCCOCCOCCOCCOCCOCCNC(=O)CN2CCN(CC(=O)O)CCN(CC(=O)O)CCN(CC(=O)O)CC2)C(=O)Nc2cccc3c(C(=O)NCC(=O)N4CC(F)(F)C[C@H]4C#N)ccnc23)cc1 (stereo partly drawn),"Prolyl endopeptidase FAP (FAP, Homo sapiens, UniProt Q12884)","enzyme activity, inhibitor, fluorescence",,,IC50,0.00142 µM
Cc1cc(NC2CCN(C)CC2)ccc1-c1cc2c(N3CCC[C@H](C(=O)NCc4ccc(OC(F)(F)F)cc4)C3)ncnc2[nH]1,"Hepatocyte growth factor receptor (MET, Homo sapiens, UniProt P08581)","enzyme activity, inhibitor, mobility shift",,,IC50,4.18 µM
C[C@@H]1Cc2c([nH]c3ccccc23)[C@@H](c2c(F)cc(/C=C/C(=O)O)cc2F)N1C12CC(C1)C2,AR,"antagonist, cell-based",,,IC50,> 3 µM
CCN(CC)CCCN(Cc1cc2cc3c(cc2[nH]c1=O)OCO3)C(=S)NCCCN(C)C,RAD52,"ssDNA annealing, fluorescence quenching",,,IC50,5.2 µM
